Experimental data gathered from unrelated publications.
Numbered parts are unrelated; each lists some results of a single study.

Block 1
Cell line: HEK-293T
Effect on: pseudovirus infection
Organism: VSV pseudotyped with SARS-CoV-2 spike
Concentration: 10 µM
Time: 16 h
Baseline: vehicle-treated
Structure (SMILES) | GFP-positive cells [%]
CC[C@@H]1/C=C(\C)C[C@H](C)C[C@H](OC)[C@H]2O[C@@](O)(C(=O)C(=O)N3CCCC[C@H]3C(=O)O[C@H](/C(C)=C/[C@@H]3CC[C@H](Cl)[C@H](OC)C3)[C@H](C)[C@@H](O)CC1=O)[C@H](C)C[C@@H]2OC | 73.6
COc1ccc(CN=c2[nH]c(N3CCC[C@H]3CO)ncc2C(=O)NCc2ncccn2)cc1Cl | 102
COc1cc(C(=O)NS(=O)(=O)c2ccccc2C)ccc1Cc1cn(C)c2ccc(NC(=O)OC3CCCC3)cc12 | 86.5
O=S(=O)(O)Oc1ccc(C(c2ccc(OS(=O)(=O)O)cc2)c2ccccn2)cc1 | 76.8
CN1CCc2nc(C(=O)N[C@@H]3C[C@@H](C(=O)N(C)C)CC[C@@H]3NC(=O)C(=O)Nc3ccc(Cl)cn3)sc2C1 | 66.5

Block 2
Target: Histone acetyltransferase KAT6A, both winged helices, GST fusion (KAT6A, Homo sapiens, UniProt Q92794, residues 1-181)
Technique: protein binding microarray
Form: double-stranded DNA, one strand shown
Sample: in vitro
Concentration: not given
Setting: 8-mer, flanks averaged, mean of 2 arrays, mostly near background
Baseline: not given
Reading: higher = stronger binding
Target sequence (chain): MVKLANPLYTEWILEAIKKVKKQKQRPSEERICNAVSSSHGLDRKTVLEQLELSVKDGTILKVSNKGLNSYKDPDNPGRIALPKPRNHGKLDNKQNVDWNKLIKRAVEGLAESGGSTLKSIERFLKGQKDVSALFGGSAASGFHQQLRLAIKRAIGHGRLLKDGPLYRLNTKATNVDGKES
Strand | E-score
AGCCTAAA | -0.245
GAGTCTAA | -0.115
CAAAGGCC | -0.0285
ACGTACCC | 0.102
ACATCCTA | -0.074
GCTAAAAC | 0.12
AAATGCAG | -0.288
CCGGCGCC | 0.36

Block 3
Target: Replicase polyprotein 1ab, main protease (rep, Severe acute respiratory syndrome coronavirus 2, UniProt P0DTD1)
Effect on: enzyme activity
Mode: inhibitor
Concentration: 20 µM
Setting: hit confirmation
Compound | inhibition
O=C(/C=C/c1ccc2ccc(C(F)(F)F)cc2n1)c1ccncc1 | 79.2%
CC(C)Nc1cccnc1N1CCN(C(=O)c2cc3cc(NS(C)(=O)=O)ccc3[nH]2)CC1 | 86.7%
O=C1c2c(O)cc(O)cc2O[C@H](c2cc(O)c(O)c(O)c2)[C@H]1O | 99.7%
CCOc1cc(C(Nc2cc(C)ccn2)c2ccc3cccnc3c2O)ccc1OC (stereo not drawn) | 107%
Cc1cc2nc3ccc(N(C)C)cc3[s+]c2cc1N | 34.4%

Block 4
Target: Replicase polyprotein 1ab, nsp13 helicase (rep, Severe acute respiratory syndrome coronavirus 2, UniProt P0DTD1)
Mode: inhibitor
Concentration: 20 µM
SMILES | inhibition
CCCCCCCC(=O)N[C@H](CN1CCCC1)[C@H](O)c1ccc2c(c1)OCCO2 | 7.8%
CCCCCCCCCCCCCCCCn1cc[n+](Cc2ccccc2)c1C | 36.6%
COc1cc(C(=O)NC2CCCNC2)cc(OC)c1OC (stereo not drawn) | 2.79%
COc1cc(-c2ccc(/N=N/c3ccc4c(S(=O)(=O)O)cc(S(=O)(=O)O)c(N)c4c3O)c(OC)c2)ccc1/N=N/c1ccc2c(S(=O)(=O)O)cc(S(=O)(=O)O)c(N)c2c1O | 103%
CC(C)Cc1sc(N)nc1-c1ccc(P(=O)(O)O)o1 | 4.06%
COc1ccc2cccc(CCNC(C)=O)c2c1 | 0.64%
CC(C)OC(=O)CNC(=O)[C@H](CS)NC(=O)CC[C@H](N)C(=O)O | 3.55%
Cc1ncc(Cl)cc1NCc1ccc(C(=O)N[C@@H](CC2CCCC2)C(=O)NC2CC2)s1 | -1.99%
CN1CCCC(CC2c3ccccc3Sc3ccccc32)C1 (stereo not drawn) | 0.9%
NCc1ccccc1CC(=O)N[C@@H]1C(=O)N2C(C(=O)O)=C(CSc3nnnn3CC(=O)O)CS[C@H]12 | 36.2%
CC(C)C(=O)Nc1ncc(-c2cc(C(F)F)nn2-c2c(Cl)cccc2Cl)s1 | 0.84%
O=c1[nH]c(=O)n(Cl)c(=O)n1Cl | 3.4%
C[C@@H]1CC(=O)c2c(ccc3c2C(=O)c2cccc(O)c2C3=O)C1 | 2.6%
NS(=O)(=O)c1cc2c(cc1Cl)N=CNS2(=O)=O | 10.1%
O=C(O)C(=O)Nc1cccc(-c2nnn[nH]2)c1 | 2.55%
O=C(CCCl)NCCc1ccccc1 | -0.88%
O=C(NCCCCCCNC(=O)ON=C1CCCCC1)ON=C1CCCCC1 | 1.58%
CC1(c2ccccc2)OC(C(=O)O)=CC1=O (stereo not drawn) | 2.94%
CC1(C)CCC(C)(C)c2c1cc(C(=O)Nc1cc(F)c(C(=O)O)c(F)c1)c(O)c2Cl | 2.4%
NC(N)=Nc1ccc(Cl)cc1 | 4.71%
Cc1ccc2[nH]c(=O)c(C3=NN(C(=O)CCC(=O)O)C(c4ccc(Br)cc4)C3)c(-c3ccccc3)c2c1 (stereo not drawn) | 3.07%
O=c1ccc2ccc(O)c(O)c2o1 | 3.18%
Cc1c(NC(=O)c2cccnc2)c(=O)n(-c2ccccc2)n1C | 1.88%
CC(/C=C1\SC(=S)N(CC(=O)O)C1=O)=C\c1ccccc1 | -7.07%
COc1cc(OC)c(OC)cc1C=O | 4.52%

Block 5
Target: Sal-like protein 4, full length isoform B (SALL4, Homo sapiens, UniProt Q9UJQ4-2, residues 1-616)
Technique: universal PBM
Form: double-stranded DNA, one strand shown
Sample: in vitro
Concentration: not given
Setting: 8-mer, flanks averaged, mean of replicates
Reading: higher = stronger binding
Target sequence (chain): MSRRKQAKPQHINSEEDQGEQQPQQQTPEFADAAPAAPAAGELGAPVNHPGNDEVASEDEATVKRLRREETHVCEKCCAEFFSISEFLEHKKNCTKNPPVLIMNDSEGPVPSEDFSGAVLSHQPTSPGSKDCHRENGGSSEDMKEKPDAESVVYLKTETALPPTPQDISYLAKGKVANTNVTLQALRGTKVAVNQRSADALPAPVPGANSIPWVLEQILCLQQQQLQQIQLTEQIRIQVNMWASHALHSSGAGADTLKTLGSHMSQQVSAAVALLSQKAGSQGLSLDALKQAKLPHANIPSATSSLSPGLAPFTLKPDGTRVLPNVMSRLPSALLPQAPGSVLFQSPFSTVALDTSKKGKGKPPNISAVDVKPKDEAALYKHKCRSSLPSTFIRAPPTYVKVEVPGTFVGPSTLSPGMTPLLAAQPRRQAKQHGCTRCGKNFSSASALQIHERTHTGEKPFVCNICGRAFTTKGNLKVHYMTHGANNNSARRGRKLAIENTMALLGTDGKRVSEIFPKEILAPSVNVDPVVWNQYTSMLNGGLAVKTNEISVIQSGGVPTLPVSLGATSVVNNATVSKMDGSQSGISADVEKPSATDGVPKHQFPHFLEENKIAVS
Strand | E-score
AATCTAGA | 0.135
GGCAGTCA | -0.0516
GAGCAGAC | -0.145
CATTAAAC | 0.261
AGCGATAA | 0.0759
AAGGCAAC | -0.0151
ACCCTTGA | -0.0898
CCGGTTGA | -0.304

For quick reference, copied from above (block 4):
SMILES | inhibition
COc1cc(-c2ccc(/N=N/c3ccc4c(S(=O)(=O)O)cc(S(=O)(=O)O)c(N)c4c3O)c(OC)c2)ccc1/N=N/c1ccc2c(S(=O)(=O)O)cc(S(=O)(=O)O)c(N)c2c1O | 103%
CC(C)Cc1sc(N)nc1-c1ccc(P(=O)(O)O)o1 | 4.06%
COc1ccc2cccc(CCNC(C)=O)c2c1 | 0.64%
